Measurements collected from several papers.
Lines come from different studies, so protocols differ. ± marks the error that the study gave.

Compound | assay | system | setting | logP
CC/C=C\C/C=C\C/C=C\C/C=C\C/C=C\C/C=C\CCC(=O)O.Cc1cc(/C=C/C#N)cc(C)c1Nc1ccnc(Nc2ccc(C#N)cc2)n1 | – | octanol/water | room temperature | 2.39 ± 0.15
CC(C)CC(=O)N[C@H](C(=O)N[C@H](C(=O)N[C@@H](CC(C)C)[C@@H](O)CC(=O)N[C@@H](C)C(=O)N[C@@H](CC(C)C)[C@@H](O)CC(=O)NCCCC[C@H](NC(=O)CCOCCOCCNC(=O)CN1CCN(CC(=O)O)CCN(CC(=O)O)CC1)C(=O)O)C(C)C)C(C)C [gallium-68 labelled] | – | water | – | -2 ± 0.18
N=C(N)c1ccc2cc(C(=O)Nc3ccc4c(c3)C(C3CCCCC3)=NCC4)ccc2c1 | – | octanol/buffer | pH 11, urokinase ligand set | 4.19
C[C@@H](NC(=O)c1ccccc1CCC(=O)NNC(=O)/C=C/C(=O)OCc1ccccc1)c1cccc2ccccc12 | – | – | – | 4.6
Cc1cc(NC(=O)C2=C(O)c3ccccc3S(=O)(=O)N2C)no1 | shake-flask, potentiometric | 1-octanol/water | – | 3.5
COC(=O)/C=C/C(=O)NNC(=O)CCc1ccccc1C(=O)N[C@H](C)c1cccc(-c2cc3ccccc3o2)c1 | – | – | – | 4.1
O=C(NO)[C@H]1COC(c2c[nH]c3ccc(F)cc23)=N1 | – | octanol/buffer | pH 11 | -0.18
COc1ccnc(C(=O)NC2CCCCC2)c1O | shake-flask, potentiometric | 1-octanol/water | – | 1.6
C=Cc1c(C)c2cc3nc(c4c5[nH]c(cc6nc(cc1[nH]2)C(C)=C6CC)c(C)c5C(=O)C4)[C@@H](CCC(=O)OC)[C@@H]3C | shake flask | octanol/water 2:1 | – | 0.663
CO[C@]1(C(=O)N[C@@H](C)c2ccc(-n3cc(F)cn3)nc2)CC[C@H](c2nc(C)cc(Nc3cc(C)[nH]n3)n2)CC1 | – | octanol/water | – | 3.87
Cc1nnc(C(=O)NC(C)(C)c2nc(C(=O)NCc3ccc(F)cc3)c(O)c(=O)n2C)o1 | shake-flask, potentiometric | 1-octanol/water | – | 1.7
CCc1nnc(NS(=O)(=O)c2ccc(NC(=O)c3ccc(F)cc3)cc2)s1 | – | octanol/buffer | pH 11, known kinase inactives set | 0.53
CNC(=O)/C=C/C(=O)NNC(=O)CCc1ccccc1C(=O)N[C@H](C)c1cccc2ccccc12 | – | – | – | 2.4
O=C(Cn1nc(-c2cccc([N+](=O)[O-])c2)c2ccccc2c1=O)NCC1CCCO1 (stereo not shown) | – | octanol/buffer | pH 11, known kinase inactives set | 2.27
COc1ccc(COC(=O)/C=C/C(=O)NNC(=O)CCc2ccccc2C(=O)N[C@H](C)c2cccc3ccccc23)cc1OC | – | – | – | 4.6
CCn1cc(C(=O)O)c(=O)c2ccc(C)nc21 | shake-flask, potentiometric | 1-octanol/water | – | 1.5
COc1ccc2ccc(C(=N)N)cc2c1-c1cnn(C(C)C)c1 | – | octanol/buffer | pH 11, urokinase ligand set | 2.09

Compound | assay | system | setting | logP
CN1C(C(=O)Nc2nnc(C(F)(F)F)s2)=C(O)c2ccccc2S1(=O)=O | shake-flask, potentiometric | 1-octanol/water | – | 4
[Cl][Ru][Cl].c1ccc(-c2ccccn2)nc1.c1ccc(-c2ccccn2)nc1.c1ccc(-c2ccccn2)nc1 | shake flask octanol-water | – | 50 µM, chloride salt | negative
CCc1ccccc1NC(=O)CSc1nnc(-c2cccc(OC)c2)n1C | – | octanol/buffer | pH 11, known kinase inactives set | 2.85
CC(=Nc1ccc(N=Cc2cnccn2)cc1)N(C)C | shake flask | 1-octanol/PBS | 1 h, pH 7.4, 25 °C | 1.74 ± 0.03
CN1C(C(=O)Nc2nccs2)=C(O)c2ccccc2S1(=O)=O | shake-flask, potentiometric | 1-octanol/water | – | 2.2
CC(=O)/C=C/C(=O)NNC(=O)CCc1ccccc1C(=O)N[C@H](C)c1cccc2ccccc12 | – | – | – | 2.8
Oc1ccc(Cl)c2cccnc12 | shake-flask, potentiometric | 1-octanol/water | – | 2.8
CC1(C)C2CCC1(CS(=O)(=O)O)C(=O)C2.O=C(NCCCNc1nc(Nc2cccc(NC(=O)N3CCCC3)c2)ncc1I)c1cccs1 | shake flask | octanol/water | – | 1.35 ± 0.1
C=CC(=O)N(C)CCOc1c(N)ncnc1-c1cc(F)cc(NC(=O)c2ccc(C3CC3)cc2F)c1C | titration | octanol/water | – | 2.8
C[C@@H](NC(=O)c1ccccc1CCC(=O)NNC(=O)/C=C/C(=O)OCc1ccc2ccccc2n1)c1cccc2ccccc12 | – | – | – | 5
CCn1c(SCC(=O)Nc2cccc(C(C)=O)c2)nnc1-c1ccncc1 | – | octanol/buffer | pH 11, known kinase inactives set | 1.49
C[C@@H](NC(=O)c1ccccc1CCC(=O)NNC(=O)/C=C/C(=O)OCCC(F)(F)F)c1cccc2ccccc12 | – | – | – | 3
C=Cc1c(C)c2cc3nc(c4c5[nH]c(cc6nc(cc1[nH]2)C(C)=C6CC)c(C)c5C(=O)C4)[C@@H](CCC(=O)O)[C@@H]3C | shake flask | octanol/water 1:1 | – | 0.554
CN1C(C(=O)Nc2ccccn2)=C(O)c2sc(Cl)cc2S1(=O)=O | shake-flask, potentiometric | 1-octanol/water | – | 2.3
N#Cc1ccc([C@H]2CCc3cncn32)c(F)c1 | – | – | – | 1.7
CCCCOC(=O)/C=C/C(=O)NNC(=O)CCc1ccccc1C(=O)N[C@H](C)c1cccc2ccccc12 | – | – | – | 4.4
Nc1cc(F)ccc1NC(=O)c1ccc(CNC(=O)/C=C/c2cccnc2)cc1 | – | octanol/buffer | pH 11 | -2.1
